Measurements from different studies.
Protocols differ between the studies behind these lines.
Organism: Streptococcus pneumoniae

For `CC[C@H](C)[C@H](N)C1=N[C@H](C(=O)N[C@@H](CC(C)C)C(=O)N[C@H](CCC(=O)O)C(=O)N[C@H](C(=O)N[C@H]2CCCCNC(=O)[C@H](CC(N)=O)NC(=O)[C@@H](CC(=O)O)NC(=O)[C@H](Cc3c[nH]cn3)NC(=O)[C@@H](Cc3ccccc3)NC(=O)[C@H](Cc3ccccc3)NC(=O)[C@@H](CCCN)NC2=O)[C@@H](C)CC)CS1`, the MIC was 16 µg/mL (153, TSB with lysed horse blood; 24 h, 37 °C, added: ZnSO4).
The MIC of `COc1ccc2nc(C)cc(OCC(=O)Nc3ccccc3OC)c2c1` is reported as 64 µM (microbial growth, broth dilution; 1629).
The MIC of `CC[C@H](C)[C@H](N)C1=N[C@H](C(=O)N[C@@H](CC(C)C)C(=O)N[C@H](CCC(=O)O)C(=O)N[C@H](C(=O)N[C@H]2CCCCNC(=O)[C@H](CC(N)=O)NC(=O)[C@@H](CC(=O)O)NC(=O)[C@H](Cc3c[nH]cn3)NC(=O)[C@@H](Cc3ccc4ccccc4c3)NC(=O)[C@H]([C@@H](C)CC)NC(=O)[C@@H](CCCN)NC2=O)[C@@H](C)CC)CS1` is reported as 2 µg/mL (153, TSB with lysed horse blood; 24 h, 37 °C, added: ZnSO4).
The MIC of `CN[C@@H]1[C@H](O)[C@H](NC)[C@H]2O[C@]3(O)[C@H](O[C@@H]2[C@H]1O)O[C@H](C)C[C@]3(O)CNCc1ccc(OC(F)(F)F)cc1` is reported as greater than 200 µg/mL (R6).
`CC(/C=C/C(O)=C1/C(=O)CNC1=O)=C\[C@@H](C)[C@H]1O[C@@]2(C)O[C@H](C(=O)[C@@H]3O[C@@]32CO)[C@@H]1C` gave an MIC of 3.13 µM (ATCC 49619).
For `CC[C@H](C)[C@H](N)C1=N[C@H](C(=O)N[C@@H](Cc2ccccc2)C(=O)N[C@H](CCC(=O)O)C(=O)N[C@H](C(=O)N[C@H]2CCCCNC(=O)[C@H](CC(N)=O)NC(=O)[C@@H](CC(=O)O)NC(=O)[C@H](Cc3c[nH]cn3)NC(=O)[C@@H](Cc3ccccc3)NC(=O)[C@H]([C@@H](C)CC)NC(=O)[C@@H](CCCN)NC2=O)[C@@H](C)CC)CS1`, the MIC was 2 µg/mL (153, TSB with lysed horse blood; 24 h, 37 °C, added: ZnSO4).
The MIC of `CN[C@@H]1[C@H](O)[C@H](NC)[C@H]2O[C@]3(O)[C@H](O[C@@H]2[C@H]1O)O[C@H](C)C[C@@]3(O)CNCc1ccccc1` is reported as 13 µg/mL (ATCC 700904 drug resistant).
For `COc1ccc2nc(C)cc(OCC(=O)Nc3cc(C)cc(C)c3)c2c1`, the MIC was 64 µM (microbial growth, broth dilution; 1629).
With `c1ccc(CCNC2CCCc3c2[nH]c2ccc(C4CCCCC4)cc32)cc1` (stereo not drawn) the MIC was 0.3 µg/mL (broth microdilution; T4, THY medium).
`CNc1nc(SC)nc2ccccc12` has an MIC of greater than 64 µM (microbial growth, broth dilution; 1629).
With `CC(C)[C@H](NC(=O)[C@H](CCCNC(=N)N)NC(=O)[C@H](CCCNC(=N)N)NC(=O)[C@@H](NC(=O)[C@H](C)NC(=O)[C@H](CC(N)=O)NC(=O)[C@H](CCCNC(=N)N)NC(=O)[C@@H](NC(=O)[C@H](CCCNC(=N)N)NC(=O)[C@H](CCCNC(=N)N)NC(=O)[C@@H](NC(=O)[C@@H](NC(=O)[C@H](CCCNC(=N)N)NC(=O)[C@H](CCCNC(=N)N)NC(=O)[C@H](Cc1c[nH]c2ccccc12)NC(=O)[C@H](Cc1c[nH]c2ccccc12)NC(=O)CN)[C@@H](C)O)C(C)C)C(C)C)C(C)C)C(=O)O` the MIC was 128 µg/mL (clinical strain; 18 h, 37 °C).
`c1cc2c(s1)CCOC21CCN(Cc2ccc3c(c2)OCCO3)CC1` gave an MIC of 64 µM (microbial growth, broth dilution; 1629).
With `CC(C)[C@H](NC(=O)[C@H](CCCCN)NC(=O)[C@H](CCCNC(=N)N)NC(=O)[C@@H](NC(=O)[C@H](C)NC(=O)[C@H](CC(N)=O)NC(=O)[C@H](CCCNC(=N)N)NC(=O)[C@@H](NC(=O)[C@H](CCCCN)NC(=O)[C@H](CCCCN)NC(=O)[C@@H](NC(=O)[C@@H](NC(=O)[C@H](CCCNC(=N)N)NC(=O)[C@H](CCCNC(=N)N)NC(=O)[C@H](Cc1c[nH]c2ccccc12)NC(=O)[C@H](Cc1c[nH]c2ccccc12)NC(=O)CN)[C@@H](C)O)C(C)C)C(C)C)C(C)C)C(=O)O` the MIC was 128 µg/mL (clinical strain; 18 h, 37 °C).
`Cc1cccc(-c2nc(Nc3ccncn3)c3sccc3n2)n1` gave an MIC of greater than 64 µM (microbial growth, broth dilution; 1629).
`CN[C@@H]1[C@H](O)[C@H](NC)[C@H]2O[C@]3(O)[C@H](O[C@@H]2[C@H]1O)O[C@H](C)C[C@@]3(O)CNCc1ccc(F)cc1` has an MIC of 6 µg/mL (Daw27 drug resistant).

A few entries again:
For `COc1ccc2nc(C)cc(OCC(=O)Nc3cc(C)cc(C)c3)c2c1`, the MIC was 64 µM (microbial growth, broth dilution; 1629).
